# Measurements collected from several papers.
# Each line is one published result; not all experiments were run side by side.
# Target: Serine/threonine-protein kinase Chk1 (CHEK1, Homo sapiens, UniProt O14757)
# Sequence (O14757 1-476, as in one of the studies): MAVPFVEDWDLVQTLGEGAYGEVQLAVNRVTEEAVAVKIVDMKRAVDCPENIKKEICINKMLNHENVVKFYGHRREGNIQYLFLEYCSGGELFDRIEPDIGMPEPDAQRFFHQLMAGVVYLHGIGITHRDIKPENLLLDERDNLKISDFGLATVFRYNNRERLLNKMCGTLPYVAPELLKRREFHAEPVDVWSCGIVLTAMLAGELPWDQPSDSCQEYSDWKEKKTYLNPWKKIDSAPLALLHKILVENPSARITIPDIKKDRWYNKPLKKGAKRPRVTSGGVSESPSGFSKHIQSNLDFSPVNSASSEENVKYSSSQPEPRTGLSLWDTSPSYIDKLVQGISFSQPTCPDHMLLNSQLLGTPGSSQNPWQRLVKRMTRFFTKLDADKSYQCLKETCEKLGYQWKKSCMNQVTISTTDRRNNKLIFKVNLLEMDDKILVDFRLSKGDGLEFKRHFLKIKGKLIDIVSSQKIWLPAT
Compound,assay,conditions,how to read,endpoint,value
Cc1cc(Nc2cc(N3CCN(C)CC3)nc(Sc3ccc(NC(=O)C4CC4)cc3)n2)[nH]n1,"kinase activity, KinaseProfiler","0.03 µM, species human",baseline: control,remaining activity,88%
COc1cc(F)ccc1-c1ncnc(Nc2cccc(C[S@](C)(=N)=O)c2)n1,kinase activity,"10 µM, together with: 10 µM ATP",,remaining activity,95%
O=C1NC(=O)/C(=C/c2ccc(-c3ccc(F)cc3O)o2)S1,enzyme activity,10 µM,,remaining activity,87%
CCCOc1ccc(OC)c(F)c1C(=O)c1ccc(C(=O)N[C@@H]2CNC[C@H]2NC(=O)c2ccc3[nH]ncc3c2)cc1,enzyme activity,10 µM,,remaining activity,65%
Cc1[nH]c(/C=C2\C(=O)Nc3ccc(F)cc32)c(C)c1C(=O)N[C@H]1CCN(C(=O)N(C)C)C1,"kinase activity, inhibitor",1 µM,baseline: no-compound control,remaining activity,78%
C=CC(=O)N1CCC(C(=O)NCC(=O)N2CCN(c3nc(-c4cnc(N)nc4C(F)F)nc(N4CCOCC4)n3)CC2)CC1,KINOMEscan,1 µM,,remaining binding,88%
C=CC(=O)N1CCC(COCC(=O)N2CCN(c3nc(-c4cnc(N)nc4C(F)F)nc(N4CCOC[C@@H]4C)n3)CC2)CC1,KINOMEscan,1 µM,baseline: DMSO control,remaining binding,96%
C[C@@H](c1ccc(-n2cnc3c(N)ncnc32)cc1)N1CCc2nn(C)c(Cc3ccccc3)c2C1=O,KINOMEscan,0.1 µM,baseline: DMSO control,remaining binding,89%
CCN(CC)c1ccc(C2=NNC(=O)CC2C)cc1[N+](=O)[O-] (centres unmarked),"enzyme activity, inhibitor",10 µM,baseline: vehicle,remaining activity,104%
C1=C/COCc2cc(ccc2OCCN2CCCC2)Nc2nccc(n2)-c2cccc(c2)COC/1,,concentration not given,,percent of control,100%
O=C(NC1CCC1)c1ccc2nc(-c3cccc(NS(=O)(=O)NCCN4CCCCC4)c3)cn2c1,enzyme activity,10 µM,,remaining activity,100%

# Excerpt of the above:
Compound,assay,conditions,how to read,endpoint,value
O=C1NC(=O)/C(=C/c2ccc(-c3ccc(F)cc3O)o2)S1,enzyme activity,10 µM,,remaining activity,87%
